Results collected from several papers.
Parts stem from different laboratories: compare values within a part only. Several values in a cell are separate wells, animals, samples, runs or records.
Sequence of UniProt Q9UQB9 (whole entry, looked up): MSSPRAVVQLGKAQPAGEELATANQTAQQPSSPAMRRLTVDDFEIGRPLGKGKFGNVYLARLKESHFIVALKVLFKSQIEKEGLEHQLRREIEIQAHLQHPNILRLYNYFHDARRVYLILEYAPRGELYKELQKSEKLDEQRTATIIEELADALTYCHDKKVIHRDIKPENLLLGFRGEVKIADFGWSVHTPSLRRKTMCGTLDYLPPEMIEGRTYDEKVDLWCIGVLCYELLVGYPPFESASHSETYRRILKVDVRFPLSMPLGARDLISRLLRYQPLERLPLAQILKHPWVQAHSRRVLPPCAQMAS
Sequence of UniProt P23443 (whole entry, looked up): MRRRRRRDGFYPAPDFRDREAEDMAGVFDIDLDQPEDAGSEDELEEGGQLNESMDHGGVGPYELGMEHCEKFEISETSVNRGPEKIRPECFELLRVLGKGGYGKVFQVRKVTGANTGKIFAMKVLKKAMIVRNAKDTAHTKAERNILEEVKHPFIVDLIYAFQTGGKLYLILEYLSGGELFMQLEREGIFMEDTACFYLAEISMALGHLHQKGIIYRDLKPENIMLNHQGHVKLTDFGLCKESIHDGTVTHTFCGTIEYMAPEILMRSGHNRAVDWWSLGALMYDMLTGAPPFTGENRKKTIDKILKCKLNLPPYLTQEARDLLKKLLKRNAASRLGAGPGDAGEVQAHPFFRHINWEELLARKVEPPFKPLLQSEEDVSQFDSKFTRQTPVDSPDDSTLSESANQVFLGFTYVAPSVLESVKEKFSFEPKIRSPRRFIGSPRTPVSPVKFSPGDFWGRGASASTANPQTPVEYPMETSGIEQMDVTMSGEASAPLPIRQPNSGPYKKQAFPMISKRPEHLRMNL
Sequence of UniProt Q13177 (whole entry, looked up): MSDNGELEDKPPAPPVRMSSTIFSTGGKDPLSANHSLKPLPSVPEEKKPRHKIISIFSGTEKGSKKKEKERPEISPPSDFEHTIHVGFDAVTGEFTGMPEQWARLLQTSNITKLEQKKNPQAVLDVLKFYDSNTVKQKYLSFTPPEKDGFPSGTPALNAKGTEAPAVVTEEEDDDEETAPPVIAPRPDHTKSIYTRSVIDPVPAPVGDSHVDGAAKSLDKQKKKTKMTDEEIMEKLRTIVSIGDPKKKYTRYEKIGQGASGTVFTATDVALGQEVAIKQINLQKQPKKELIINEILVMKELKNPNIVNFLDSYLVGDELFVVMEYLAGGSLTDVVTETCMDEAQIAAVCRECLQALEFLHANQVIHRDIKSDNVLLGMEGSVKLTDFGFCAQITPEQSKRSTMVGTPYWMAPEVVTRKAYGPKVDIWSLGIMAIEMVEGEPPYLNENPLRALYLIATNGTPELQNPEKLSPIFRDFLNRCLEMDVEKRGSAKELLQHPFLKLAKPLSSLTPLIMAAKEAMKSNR
Sequence of UniProt Q15418 (whole entry, looked up): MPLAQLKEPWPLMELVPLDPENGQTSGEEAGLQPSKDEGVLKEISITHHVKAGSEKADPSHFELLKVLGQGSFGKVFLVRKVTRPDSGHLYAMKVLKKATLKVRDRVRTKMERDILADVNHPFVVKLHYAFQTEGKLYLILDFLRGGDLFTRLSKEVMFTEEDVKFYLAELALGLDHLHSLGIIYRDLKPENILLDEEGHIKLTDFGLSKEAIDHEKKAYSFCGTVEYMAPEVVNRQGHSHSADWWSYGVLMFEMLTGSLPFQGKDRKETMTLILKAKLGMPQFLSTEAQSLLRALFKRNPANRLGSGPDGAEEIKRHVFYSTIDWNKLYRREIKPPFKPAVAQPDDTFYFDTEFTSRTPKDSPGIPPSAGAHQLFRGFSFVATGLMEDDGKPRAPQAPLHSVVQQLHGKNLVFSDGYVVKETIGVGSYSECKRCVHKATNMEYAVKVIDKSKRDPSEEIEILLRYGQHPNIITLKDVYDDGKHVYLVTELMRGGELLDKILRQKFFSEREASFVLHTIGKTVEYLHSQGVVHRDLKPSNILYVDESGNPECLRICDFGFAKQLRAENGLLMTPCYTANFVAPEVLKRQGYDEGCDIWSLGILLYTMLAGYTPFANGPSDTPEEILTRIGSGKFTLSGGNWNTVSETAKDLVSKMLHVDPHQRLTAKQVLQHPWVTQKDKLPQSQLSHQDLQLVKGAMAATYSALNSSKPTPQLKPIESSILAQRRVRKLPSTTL
Sequence of UniProt P22455 (whole entry, looked up): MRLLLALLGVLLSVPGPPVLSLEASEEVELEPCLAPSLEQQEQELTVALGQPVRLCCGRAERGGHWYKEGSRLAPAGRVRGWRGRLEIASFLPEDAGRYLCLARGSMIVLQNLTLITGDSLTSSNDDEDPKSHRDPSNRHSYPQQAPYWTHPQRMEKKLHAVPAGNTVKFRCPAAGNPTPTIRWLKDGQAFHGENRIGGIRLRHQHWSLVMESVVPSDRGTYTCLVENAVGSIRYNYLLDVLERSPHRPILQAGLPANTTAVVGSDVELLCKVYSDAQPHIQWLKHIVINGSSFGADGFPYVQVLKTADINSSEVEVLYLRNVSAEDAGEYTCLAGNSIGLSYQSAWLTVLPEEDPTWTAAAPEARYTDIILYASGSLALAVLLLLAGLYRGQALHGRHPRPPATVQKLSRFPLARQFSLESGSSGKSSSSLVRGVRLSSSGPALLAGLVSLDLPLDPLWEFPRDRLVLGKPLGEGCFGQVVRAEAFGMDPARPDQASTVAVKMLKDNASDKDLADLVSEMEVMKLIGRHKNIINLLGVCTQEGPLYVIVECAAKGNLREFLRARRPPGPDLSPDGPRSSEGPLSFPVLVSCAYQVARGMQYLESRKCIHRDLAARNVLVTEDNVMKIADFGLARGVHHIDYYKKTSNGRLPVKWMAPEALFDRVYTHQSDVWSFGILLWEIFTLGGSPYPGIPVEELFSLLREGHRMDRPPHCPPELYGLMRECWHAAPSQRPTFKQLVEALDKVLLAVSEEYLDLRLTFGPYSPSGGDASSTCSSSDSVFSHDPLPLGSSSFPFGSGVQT
Sequence of UniProt P41240 (whole entry, looked up): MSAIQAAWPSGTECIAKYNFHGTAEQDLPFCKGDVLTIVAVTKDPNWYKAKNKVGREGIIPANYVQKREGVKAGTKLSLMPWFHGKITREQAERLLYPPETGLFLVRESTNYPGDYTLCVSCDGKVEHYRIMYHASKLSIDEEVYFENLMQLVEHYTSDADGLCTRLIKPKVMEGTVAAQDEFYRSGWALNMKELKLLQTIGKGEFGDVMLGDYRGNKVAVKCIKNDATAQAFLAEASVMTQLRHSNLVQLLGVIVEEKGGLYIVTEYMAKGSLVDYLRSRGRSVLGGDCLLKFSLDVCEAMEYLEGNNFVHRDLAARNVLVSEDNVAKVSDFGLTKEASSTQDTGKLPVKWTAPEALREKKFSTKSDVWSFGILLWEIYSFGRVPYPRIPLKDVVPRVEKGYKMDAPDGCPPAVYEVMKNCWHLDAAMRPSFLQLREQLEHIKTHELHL
Sequence of UniProt O00141 (whole entry, looked up): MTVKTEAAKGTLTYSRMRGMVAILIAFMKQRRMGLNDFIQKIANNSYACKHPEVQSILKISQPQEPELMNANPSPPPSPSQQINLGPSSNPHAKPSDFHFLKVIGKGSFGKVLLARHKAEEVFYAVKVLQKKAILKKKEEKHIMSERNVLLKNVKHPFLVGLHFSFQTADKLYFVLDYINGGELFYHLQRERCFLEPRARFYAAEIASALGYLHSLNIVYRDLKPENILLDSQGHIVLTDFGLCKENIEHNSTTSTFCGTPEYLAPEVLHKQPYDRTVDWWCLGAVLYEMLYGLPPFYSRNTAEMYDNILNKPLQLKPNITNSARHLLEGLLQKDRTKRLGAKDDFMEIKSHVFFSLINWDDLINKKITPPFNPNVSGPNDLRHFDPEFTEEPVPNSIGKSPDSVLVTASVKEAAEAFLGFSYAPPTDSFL

Sample 1 — SMILES: Cc1ccc(NC2=CC(=O)c3sc(C)nc3C2=O)cc1; read-out: enzyme activity; mode: inhibitor; tested at: 0.5 µM; baseline: control
target	remaining activity [%]
SRPK3 (Homo sapiens, UniProt Q9UPE1)	98.2
GSK3A (Homo sapiens, UniProt P49840)	102
RPS6KA1 (Homo sapiens, UniProt Q15418)	102
CSK (Homo sapiens, UniProt P41240)	102
PAK2 (Homo sapiens, UniProt Q13177)	104
EPHA7 (Homo sapiens, UniProt Q15375)	92.3
PRKCG (Homo sapiens, UniProt P05129)	77
FGFR4 (Homo sapiens, UniProt P22455)	86.7
EPHB2 (Homo sapiens, UniProt P29323)	100
PRKCE (Homo sapiens, UniProt Q02156)	96.3
GRK2 (Homo sapiens, UniProt P25098)	96.6
MYLK (Homo sapiens, UniProt Q15746)	90.1
Aurora kinase C (AURKC, Homo sapiens, UniProt Q9UQB9)	90.7
PIM2 (Homo sapiens, UniProt Q9P1W9)	103
SGK1 (Homo sapiens, UniProt O00141)	114
CSF1R (Homo sapiens, UniProt P07333)	89.9
RPS6KB1 (Homo sapiens, UniProt P23443)	97.2

Sample 2 — cell line: mouse MPNST tumor cells; method: high-content immunofluorescence imaging; refers to: nuclear SOX9; tested at: 10 µM; time: 12 h; notes: mean of 2 replicates; baseline: DMSO control; direction: higher = more nuclear SOX9
SMILES	nuclear SOX9 intensity
CC(=O)OCC(CCn1cnc2cnc(N)nc21)COC(C)=O	91.7 % of DMSO
CC1(C)SCN(S(=O)(=O)c2ccccc2)C1C(=O)NC(CNC(=O)NCc1ccccc1)C(=O)O (stereo not drawn)	100 % of DMSO
CCc1c2c(nc3ccc(O)cc13)-c1cc3c(c(=O)n1C2)COC(=O)[C@]3(O)CC	104 % of DMSO and 154 % of DMSO
Nc1nc2c(ncn2COC(CO)CO)c(=O)[nH]1	101 % of DMSO and 93.4 % of DMSO
Cc1cnc(Nc2ccc(F)cc2Cl)nc1-c1c[nH]c(C(=O)N[C@H](CO)c2cccc(Cl)c2)c1	84.5 % of DMSO
O=C1CCC(N2C(=O)c3ccccc3C2=O)C(=O)N1 (stereo not drawn)	97.2 % of DMSO and 93.8 % of DMSO
CCCCC1CCC(c2nc(-c3ccncc3)no2)CC1 (stereo not drawn)	100 % of DMSO
CC(C)(C)c1cc(C(=O)C=Cc2ccc(C(=O)O)cc2)cc(C(C)(C)C)c1	96.8 % of DMSO
CCC(=O)OCC(=O)[C@@]1(OC(=O)CC)[C@H](C)C[C@H]2[C@H]3[C@H]([C@@H](O)C[C@@]21C)[C@@]1(C)C=CC(=O)C=C1C[C@H]3Cl	67.4 % of DMSO
CN(C)CCC(c1ccccc1)c1ccccn1 (stereo not drawn)	99.6 % of DMSO
Cc1cc(C)cc(NC(=O)Nc2ccc(OS(N)(=O)=O)cc2)c1	94.9 % of DMSO
Cc1cc(CN)cc(C)c1-c1ncn(C)c1-c1ccnc2cc(F)ccc12	104 % of DMSO

Sample 3 — species: mouse; medium: microsomes or S9; tested at: 2 µM; time: 0.5 h
Compound	remaining compound [%]
Cc1cc(C)c2c(n1)nn1c(-n3ccnc3)cc(C)nc21	15.4
COc1cc(C)ccc1OCCN1CC[C@H]2CNC[C@H]21	22.7
O=C(Nc1ccc(Nc2ccc(-n3cccn3)nn2)cc1)c1cccc(Cl)c1	57.2
Cc1cc(C)n(CC(O)CON=C2c3ccccc3-c3ccccc32)n1 (stereo not drawn)	0.622
O=C1NN=C(c2ccc(F)cc2)Cn2c1cc1ccccc12	6.4
Cc1ccc(C)c(NC(=O)N2CCc3[nH]cnc3C2)c1	71.8
CCC(C)(C)C1CCC2(CC1)NC(=O)N(CC(=O)N1CCC(N3CCNC3=O)CC1)C2=O (stereo not drawn)	45.9
CCc1c(C(=O)NNc2oc(C(C)C)nc2C#N)cnn1C(C)(C)C	0.623
COc1c(C(C)(C)C)cc(C(=O)COc2ccc(O)cc2)c(O)c1I	28.2
O=S(=O)(Cc1cc(F)ccc1F)NCCn1ccc(-c2ccsc2)n1	3.04
COc1ccccc1N/C(N)=N/Cc1ccccc1OCCN(C)C	67.6
COc1cc(=O)n2c(c1C(=O)Nc1cccc3c1CCCC3)CCCC2	41.2
O=c1[nH]nc(-c2ccc(OCCN3CCCCC3)cc2)cc1-c1ccc(Cl)cc1	78.3
CCC(C)NCc1ccccc1-c1ccc(S(C)(=O)=O)cc1 (stereo not drawn)	88.5

Sample 4 — read-out: enzyme activity; mode: inhibitor; tested at: 10 µM
Target: Calcium/calmodulin-dependent protein kinase type II subunit alpha (CAMK2A, Homo sapiens, UniProt Q9UQM7)
Sequence of UniProt Q9UQM7 (whole entry, looked up): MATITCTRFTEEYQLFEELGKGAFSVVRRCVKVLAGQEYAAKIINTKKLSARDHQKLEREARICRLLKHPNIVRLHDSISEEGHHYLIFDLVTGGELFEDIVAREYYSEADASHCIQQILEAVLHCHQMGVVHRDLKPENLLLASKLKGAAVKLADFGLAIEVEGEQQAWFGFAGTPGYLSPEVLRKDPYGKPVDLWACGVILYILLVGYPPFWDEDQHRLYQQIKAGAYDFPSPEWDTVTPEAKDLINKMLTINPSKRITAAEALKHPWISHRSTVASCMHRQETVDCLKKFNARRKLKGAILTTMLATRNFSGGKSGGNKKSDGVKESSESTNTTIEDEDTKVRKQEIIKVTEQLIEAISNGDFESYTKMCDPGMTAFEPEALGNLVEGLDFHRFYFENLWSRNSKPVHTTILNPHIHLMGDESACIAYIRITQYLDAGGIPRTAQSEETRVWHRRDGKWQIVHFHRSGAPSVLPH
SMILES	inhibition
COc1cc(/C=C/C(=O)CC(=O)/C=C/c2ccc(O)cc2)ccc1O	60%
Cc1cc(=O)c2c(O)cc(O)cc2o1	2%
C=C(C(=O)O)[C@@H]1CC[C@@H](C)[C@@H]2CCC(C)=C[C@@H]21	40%
Cc1cc2c(C(C)C)c(O)c(O)c(C=O)c2c(O)c1-c1c(C)cc2c(C(C)C)c(O)c(O)c(C=O)c2c1O	-5%
Cc1cc(C)c(NC(=O)CN(CC(=O)O)CC(=O)O)c(C)c1Br	0%
C[C@@H]1NC(=O)[C@@H]2CCCN2C(=O)[C@H](CC(N)=O)NC(=O)[C@@H]2CSSC[C@H](N)C(=O)N[C@H]3CSSC[C@H](NC1=O)C(=O)N[C@@H]([C@@H](C)O)C(=O)NCC(=O)N[C@H](C(=O)N[C@@H](Cc1ccc(O)cc1)C(=O)O)CSSC[C@H](NC(=O)[C@H](Cc1ccc(O)cc1)NC(=O)[C@H](CCC(=O)O)NC3=O)C(=O)N2	-1%
CCCCCCCCCCCCCCCO	-54%
O=C1C([C@@H]2O[C@H](CO)[C@@H](O)[C@H](O)[C@H]2O)=C(O)/C(=C(O)/C=C/c2ccc(O)cc2)C(=O)C1(O)[C@@H]1O[C@H](CO)[C@@H](O)[C@H](O)[C@H]1O (stereo partly drawn)	-23%
O=C(O)CCc1ccccc1O	-42%
CCC1=C(C)CN(C(=O)NCCc2ccc(S(=O)(=O)NC(=O)N[C@H]3CC[C@H](C)CC3)cc2)C1=O	0%
CCOC(=O)CC(=O)C(C)(C)C	-35%
Oc1c(I)cc(I)c2cccnc12	-1%
O=C1Nc2ccccc2C1(c1ccc(O)cc1)c1ccc(O)cc1	-4%
NC(N)=NCCCC(=O)O	-9%
